Results from different studies.
Several values in a cell are separate wells, animals, samples, runs or records. Numbers after ± are the reported error.

Substance | test | system | conditions | scale | measurement | result
Cc1cc([C@H]2C[C@@H]3CC[C@H]([C@H]2c2cc(-c4ccccc4)no2)N3C)ccc1Cl | nicotine-induced antinociception, antagonist, hot-plate test | mouse | added: nicotine 2.5 mg/kg sc |  | ED50 | > 20 mg/kg
C#Cc1ccc2c(c1)C(c1ccccn1)=NCc1c(-c3cnco3)ncn1-2 | increase in zones cleared | mouse, lactic acid-depressed nesting |  | reference: vehicle | effective dose | 10 mg/kg
C#Cc1ccc2c(c1)C(c1ccccn1)=NCc1c(C(=O)OCC)ncn1-2 | von Frey | mouse, sciatic nerve CCI | ip, 16 mg/kg, 45 min to 4 h, added: vehicle after 45 min |  | AUC of paw withdrawal threshold | 1.9 ± 0.29 g·h
COc1ccc2c(c1)[C@]13CCCC[C@@H]1[C@H](C2)N(C)CC3 |  | rat, striatum, hippocampus, cortex | intraperitoneal, 30 mg/kg, three doses, 1 week, added: MDMA 20 mg/kg oral | reference: MDMA with saline | MDMA-induced 5-HT depletion | no effect
Polymyxin B | LAL test | human plasma | 60 min, 37 °C, 50% reduction, added: Escherichia coli LPS 0.5 ng/mL |  | endotoxin neutralizing concentration | < 100 ng/mL and 63 ng/mL
C[C@H](N)Cc1ccccc1 |  | C57BL/6J mouse | intraperitoneal, 3 mg/kg, 5.5 h cumulative | reference: vehicle-treated mice | locomotor activity | ~9 fold
CNC(C)Cc1ccc2c(c1)OCO2 (racemic) | Drug Effects Questionnaire, refers to: Feel Drug | human | oral, 0.75 mg/kg, mean over session, unit not given | reference: pre-dose baseline | subjective drug effect rating | 24.4
CCC1=NC(C)CC1(c1ccccc1)c1ccccc1.Cl (stereo not drawn) | elevated plus maze | Sprague-Dawley rat | subcutaneous, dose not given, 30 min, 300 s test |  | time in open arms | 143 s
CCCCCc1cc(O)c2c(c1)OC(C)(C)[C@@H]1CCC(C)=C[C@@H]21 | HPLC-MS/MS, refers to: A-Taur | female CD1 mouse, brain | dose not given, 2 h |  | number of modulated brain regions | 5
Cc1ccc([C@H]2C[C@@H]3CC[C@H]([C@H]2c2cc(-c4ccc(Cl)cc4)no2)N3C)cc1 | nicotine-induced antinociception, antagonist, hot-plate test | mouse | added: nicotine 2.5 mg/kg sc |  | ED50 | > 20 mg/kg
CCCCCc1cc(O)c2c(c1)OC(C)(C)[C@@H]1CCC(C)=C[C@@H]21 |  | male ND4 Swiss-Webster mice | intraperitoneal, 10 and 25 mg/kg |  | duration of locomotor depression | 120 to 210 min
COc1ccc(-c2cc([C@H]3[C@@H](c4ccc(Cl)cc4)C[C@@H]4CC[C@H]3N4C)on2)cc1 | nicotine-induced antinociception, antagonist, hot-plate test | mouse | added: nicotine 2.5 mg/kg sc |  | ED50 | > 20 mg/kg
COc1ccc2cc3[n+](cc2c1OC)CCc1cc2c(cc1-3)OCO2 |  | rat, STZ-induced diabetic, liver | oral, 12 mg/kg, day 28 |  | TBARS | 2.89 ± 0.66 nmol MDA/mg protein
COC(=O)[C@@H]1[C@H]2CC[C@@H](C[C@H]1c1ccc(Cl)c(C)c1)N2C | nicotine-induced antinociception, antagonist, hot-plate test | mouse | added: nicotine 2.5 mg/kg sc |  | ED50 | > 20 mg/kg
COC(=O)[C@H]1[C@@H](OC(=O)c2ccccc2)C[C@@H]2CC[C@H]1N2C |  | rat, medial forebrain bundle | intraperitoneal, 10 mg/kg | reference: baseline | ICSS rate | 171 ± 18.9%

For quick reference, copied from above:
Substance | test | system | conditions | scale | measurement | result
CCCCCc1cc(O)c2c(c1)OC(C)(C)[C@@H]1CCC(C)=C[C@@H]21 | HPLC-MS/MS, refers to: A-Taur | female CD1 mouse, brain | dose not given, 2 h |  | number of modulated brain regions | 5
Polymyxin B | LAL test | human plasma | 60 min, 37 °C, 50% reduction, added: Escherichia coli LPS 0.5 ng/mL |  | endotoxin neutralizing concentration | < 100 ng/mL and 63 ng/mL
